# Results of several laboratories.
# “And” joins repeats or separate records; there may be more than shown. Numbers after ± are the reported error.
# B1: UGT1A7 (Homo sapiens, UniProt Q9HAW7); chain GKLLVVPMDGSHWFTMQSVVEKLILRGHEVVVVMPEVSWQLGRSLNCTVKTYSTSYTLEDQDREFMVFADARWTAPLRSAFSLLTSSSNGIFDLFFSNCRSLFNDRKLVEYLKESCFDAVFLDPFDACGLIVAKYFSLPSVVFARGIFCHYLEEGAQCPAPLSYVPRLLLGFSDAMTFKERVWNHIMHLEEHLFCPYFFKNVLEIASEILQTPVTAYDLYSHTSIWLLRTDFVLEYPKPVMPNMIFIGGINCHQGKPVPMEFEAYINASGEHGIVVFSLGSMVSEIPEKKAMAIADALGKIPQTVLWRYTGTRPSNLANNTILVKWLPQNDLLGHPMTRAFITHAGSHGVYESICNGVPMVMMPLFGDQMDNAKRMETKGAGVTLNVLEMTSEDLENALKAVINDKSYKENIMRLSSLHKDRPVEPLDLAVFWVEFVMRHKGAPHLRPAAHDLTWYQYHSLDVIGFLLAVVLTVAFITFKCCAYGYRKCLGKKGRVKKAHKSKTH
Substance,target or system,assay,test system,conditions,scale,measurement,result
Ubiquitin fragment (Homo sapiens),,"NMR, refers to: Lys27",,,,pKa,11.1
ACDDQNPWRAYLDLLFPTDTLLLDLLW,,ex vivo fluorescence imaging,"peptide, BALB/c mice, 4T1 tumour-bearing","intravenous, 5 nmol, 4 h post-injection, background-corrected mean fluorescence",baseline: tumour over muscle,contrast index,5.9 ± 0.9
"FNA / CGLSGLGVA-NH2 ([18F]FNA-labelled, C-amide)",,ex vivo gamma counting,"peptide, healthy mouse, plasma",60 min post injection,,tissue uptake,1.34 %ID/g
pegcetacoplan,,refers to: all TEAEs,patients with PNH,"dose not given, phase Ib trial",,number of TEAEs,427
insulin aspart,,"ELISA, refers to: total insulin aspart","human, type 1 diabetes, serum","subcutaneous, dose not given, least squares mean, single dose",,time to late 50 % Cmax,154 min
ACEQNPIYWARYADWLFTTPLLLLDLALLVDADEGT,,ex vivo fluorescence imaging,"peptide, BALB/c mice, 4T1 tumour-bearing, liver","intravenous, 5 nmol, 24 h post-injection",higher = more uptake,mean fluorescence intensity,502 ± 85.5 a.u.
BzATP,"P2X purinoceptor 7 (P2rx7, Rattus norvegicus, UniProt Q64663, I214A/Q143A)","ion current, agonist, two-electrode voltage clamp",Xenopus oocytes,33 µM,,normalized current,0.27 and 0.31 and 0.36
secretory leukocyte protease inhibitor,RAW264.7,MTT,,"0.1 to 10 µg/mL, 24 h",baseline: vehicle,cytotoxicity,not toxic
"UGT1A6 (Homo sapiens, UniProt P19224)",O=c1cc(C(F)(F)F)c2ccc(O)cc2o1,steady-state kinetics,,"37 °C, not purified",,Vmax/Km,137 µL/min/mg
11-deoxycorticosterone,human CYP11B2,"substrate, stopped-flow kinetics",,"4-state closed model, added: adrenodoxin 10-fold excess",,rate constant k-4,24.8 min⁻¹
"enzyme (Lactiplantibacillus plantarum, UniProt Q06115)",C[C@H](CCC(=O)N[C@@H](Cc1ccc(O)cc1)C(=O)O)[C@H]1CC[C@H]2[C@@H]3[C@H](O)C[C@@H]4C[C@H](O)CC[C@]4(C)[C@H]3C[C@H](O)[C@]12C,steady-state kinetics,,"pH 6.2, 37 °C",,K0.5,2350 µM
colistin,Pseudomonas aeruginosa,broth microdilution,clinical isolate RKI 485/15-1,,,MIC,1 µg/mL
insulin degludec,,,human,"subcutaneous, 0.4 IU/kg, 1 FC level, single dose, reference formulation",,AUC0−∞,600 ± 88 ng·h/mL
ACEEQNPWARYLEWLFPTETLLLEL,,ex vivo fluorescence imaging,"peptide, BALB/c mice, 4T1 tumour-bearing","intravenous, 5 nmol, 24 h post-injection, background-corrected mean fluorescence",baseline: tumour over muscle,contrast index,19.1 ± 7.2
"DNA 1 CACTGGCCGTCTTACGGTCGCTCTGCTCGACG / DNA 2 CGACCGTAAGACGGCCAGTG (dsDNA; 20 bp, 3' 12 nt overhang)","RECQL 63-592 Q324A (Homo sapiens, UniProt P46063)",fluorescence anisotropy,double-stranded DNA,added: Mg2+ 3 mM,,Kd,71.7 ± 12.8 nM
recombinant human interferon gamma,"ABCB1 (Homo sapiens, UniProt P08183)",,enteroid monolayers,"1 ng/mL, 48 h, added: tariquidar 10 µM",,digoxin efflux ratio,increased
B1 (UGT1A7),CC(C)=CCc1cc2c(cc1O)O[C@H](c1ccc(O)cc1)CC2=O,steady-state kinetics,,pH 7.4,,Vmax/Km,536 µL/min/mg
Peginesatide,UT7/EPO,"tyrosine phosphorylation, LC-MS/MS phosphoproteomics, trypsin, refers to: SEPT2 tyrosine 17",,"10 nM, 15 min, added: 10 U/mL EPO",baseline: vehicle,phosphorylation level,11 fold
"UGT1A4 (Homo sapiens, UniProt P22310)",CN1CCN(CCCN2c3ccccc3Sc3ccc(C(F)(F)F)cc32)CC1,steady-state kinetics,,"37 °C, not purified",,Vmax/Km,47 µL/min/mg

# Some of these lines once more:
Substance,target or system,assay,test system,conditions,scale,measurement,result
ACDDQNPWRAYLDLLFPTDTLLLDLLW,,ex vivo fluorescence imaging,"peptide, BALB/c mice, 4T1 tumour-bearing","intravenous, 5 nmol, 4 h post-injection, background-corrected mean fluorescence",baseline: tumour over muscle,contrast index,5.9 ± 0.9
